Experimental data of several laboratories.
Numbered parts are unrelated; each lists some results of a single study.

Block 1
Target: Interferon regulatory factor 3, full length, phosphomimetic (IRF3, Homo sapiens, UniProt Q14653, residues 1-427, S386D/S396D/S398D/S402D/T404D/S405D)
Sequence of UniProt Q14653 (whole entry, unmodified, looked up): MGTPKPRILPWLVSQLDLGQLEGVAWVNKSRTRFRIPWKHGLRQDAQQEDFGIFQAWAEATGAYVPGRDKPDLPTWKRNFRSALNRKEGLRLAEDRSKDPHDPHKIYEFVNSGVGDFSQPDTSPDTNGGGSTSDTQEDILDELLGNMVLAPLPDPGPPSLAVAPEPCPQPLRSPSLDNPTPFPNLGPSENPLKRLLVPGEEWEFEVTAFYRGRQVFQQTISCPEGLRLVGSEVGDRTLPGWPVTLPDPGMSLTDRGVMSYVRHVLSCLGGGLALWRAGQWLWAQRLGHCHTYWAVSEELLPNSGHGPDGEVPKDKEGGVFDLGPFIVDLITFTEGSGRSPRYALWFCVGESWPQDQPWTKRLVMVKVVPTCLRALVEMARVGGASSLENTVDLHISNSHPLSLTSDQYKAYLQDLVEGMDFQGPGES
Method: protein-binding microarray
Molecule type: double-stranded DNA, one strand shown
Matrix: in vitro
Concentration: 2540 nM top
Notes: 60-bp whole probe
Added: salmon DNA 0.4 mg/ml
Relative to: random background probes
Direction: higher = stronger binding
Measurement: fitted relative affinity
Shared flanks, not repeated: GCCTAGCAC … GTCTTGATTCGCTTGACGCTGCTG
CTAGGTTTCGGGTTTCGGTTAGTGCTA: 5.98 z-score
TCAAGTCTTGTTTTACAACTGTGCTAG: 0.409 z-score
GACGATTTCGGGTTTAGAGACGTGCTA: 2.39 z-score
GACGGTTTCGACTATCGGGAAGTGCTA: 3.02 z-score
TCACATACTAGTTTCCAACTGTGCTAG: 3.85 z-score
TCATGTTTCCTCTTTCAACTGTGCTAG: 3.84 z-score
GACGGACTGAGACTGGAGACGTGCTAG: -0.536 z-score
TTAGATCTCAGTCGCGATTAGTGCTAG: -0.105 z-score

Block 2
Target: RNA binding protein fox-1 homolog 2, RRM domain, GST-SBP tag (RBFOX2, Homo sapiens, UniProt O43251-10, residues 100-194)
Method: RNA Bind-n-Seq
Molecule type: RNA
Matrix: in vitro
Concentration: 365 nM
Notes: natural RNA segment, single round, ends assumed
Relative to: no-protein control
Direction: higher = stronger binding
Measurement: RBNS enrichment (R)
Residues (chain): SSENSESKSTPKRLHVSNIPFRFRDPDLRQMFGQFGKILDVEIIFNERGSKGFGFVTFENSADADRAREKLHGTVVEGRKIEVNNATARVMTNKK
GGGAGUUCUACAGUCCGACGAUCGGCCACGCGUGCAGGGUGUGUGUCCACGAGCGACGAUCGUGGUGGCCCCAGCGGCCUGGGCGUUGGCUGAGCCGACGCUGGGGCUUCCAGAAGGCCCGGGGGUCUCCGAGUGGAAUUCUCGGGUGCCAA: 0.886
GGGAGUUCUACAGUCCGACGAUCACCAGCAUCCUGCCGCCCAAAGCCGCCUCUUCUCAGUUGCCAAACGAGGGGCCUGCCCCCCGCCCUACCGGCUUUUGGAUUCUGGGAGGGGAACUCUGCCUCCCUGCAAAUGGAAUUCUCGGGUGCCAA: 0.451
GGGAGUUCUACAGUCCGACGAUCAAUAUUUGAUAAUGGUUGCACUUAUCUUCAGUGCAGGUUAGAAGAGUCUUCUCAACCAAGCUUAACUCGAGUUGUCUUCUCAGCCCUCAAAAGGCUCUUGUACAAAAUGUUGGAAUUCUCGGGUGCCAA: 0.32
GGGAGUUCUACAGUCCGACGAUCCCUUUCUCCUGUGGACUAGCCUGGAAAGGAGGCGCUUCUAGGCCACCUGGCACAGUUUUCUCUGAACUCUGGAAGACUUCUGAUGGGUGGUGUUCAGCUUCGACAAAGAUUGGAAUUCUCGGGUGCCAA: 0.443
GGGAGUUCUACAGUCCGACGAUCUAGCUUGACACUGUACUAGCUUCCUGAAUUGUUUGAAAAUACUACUUAAAUAUAAGACAACAGGAAAUUUAUAUAGGAAACAUUUUCAUUCCACUUGUAUAAUUUAAGUCUGGAAUUCUCGGGUGCCAA: 1.14
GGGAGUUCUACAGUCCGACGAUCUUAUUUAAGGACAUUCUUUUUUAUUGGCGGCUCCAUGGCCCUCGGCCGCUUGCACCCGCUCUCUGUUGUACACUUUCAAUCAACACUUUUUCAGACUAAAGGCCAAAACCUGGAAUUCUCGGGUGCCAA: 0.44
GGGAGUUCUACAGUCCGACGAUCCUUCACCAUAGCAGCAGCAGACCUCCAUAUGGAGGAGGAAGAGGACACCUGGAGCCAAAGCAGGAGUUGGAGGGACAAUGCCACUAUGAAUCUAAUGUUUAAAAGGUUAGUGGAAUUCUCGGGUGCCAA: 0.719
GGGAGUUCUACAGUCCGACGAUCGGUUGCUUUUUUCUGGGGUCUUUGAGCUCCAAAAAAUAAACACUUCCUUUGAGGGAGAGCACACCUGCUCUCGAGUUCCUGGAGUAUCAUCGUUUUAGUACCCAAGCGUUUGGAAUUCUCGGGUGCCAA: 0.26

Block 3
Target: Phosphate system positive regulatory protein PHO4, full length, GST-tagged (PHO4, Saccharomyces cerevisiae, UniProt P07270, residues 1-312)
Method: competition protein-binding microarray
Molecule type: double-stranded DNA, one strand shown
Matrix: in vitro
Concentration: 2 µM
Notes: whole 60-bp probe, lowest competitor level
Added: Cbf1 competitor, 0.05 µM
Direction: higher = stronger binding
Measurement: fluorescence intensity
Residues (chain): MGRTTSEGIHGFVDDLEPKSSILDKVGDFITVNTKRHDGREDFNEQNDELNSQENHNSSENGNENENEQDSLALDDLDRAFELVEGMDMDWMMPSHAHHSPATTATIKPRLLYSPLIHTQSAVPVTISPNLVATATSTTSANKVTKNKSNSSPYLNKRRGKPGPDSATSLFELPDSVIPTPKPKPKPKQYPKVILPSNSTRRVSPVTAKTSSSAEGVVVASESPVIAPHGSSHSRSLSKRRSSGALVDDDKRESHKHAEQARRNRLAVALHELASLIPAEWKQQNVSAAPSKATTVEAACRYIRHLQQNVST
CGTCCTAGTGATTGCCATGTGGGTGCCATGAGGAAGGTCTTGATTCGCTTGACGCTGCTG: 12000 a.u.
CATACCCAACCTTGTCTCGTGGGTGAAGATATTTGTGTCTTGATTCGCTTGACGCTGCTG: 10700 a.u.
AAATTACTAAGTTCTCACGTGTTTTACCCCGTATGAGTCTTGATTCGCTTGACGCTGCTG: 12600 a.u.
ATCGCTTATCGCTGTCATGTGACAGTTAATTGAAATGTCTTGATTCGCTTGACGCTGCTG: 7820 a.u.
CATACCCAACCTTGAAGCGTGGGTGAAGATATTTGTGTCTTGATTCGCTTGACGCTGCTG: 9080 a.u.
CTATAATGATTCTGTCGCGTGGAACGGTTTTCCATGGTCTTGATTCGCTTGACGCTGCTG: 7750 a.u.
GATTTCTTAGCCCATCACGTGCTAACTTTTTGGAATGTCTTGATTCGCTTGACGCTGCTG: 15200 a.u.
TGCGCAACAACTTGAACTGTGGGTGTATGTCTAGAAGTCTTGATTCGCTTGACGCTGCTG: 4850 a.u.

Other studies, line by line
PhoQ, residues 284 288 289 292 302 303 GASLAW — fold induction (PhoP, residues 12 14 15 18 19 GQALL (Escherichia coli, UniProt P23836); Sort-seq, measured: YFP reporter; E. coli; PhoQ-PhoP variant library, added: 10 µM Mg2+; relative to: high Mg2+ state, higher = stronger signaling): 7.53

Excerpt of the above (block 1):
GACGGACTGAGACTGGAGACGTGCTAG: -0.536 z-score
TCACATACTAGTTTCCAACTGTGCTAG: 3.85 z-score
CTAGGTTTCGGGTTTCGGTTAGTGCTA: 5.98 z-score
